Published values collected from several papers.
Compare with care: the assays were run in different laboratories. Numbers after ± are the reported error.
ERBB2: Receptor tyrosine-protein kinase erbB-2 (ERBB2, Homo sapiens, UniProt P04626)
ampC: Beta-lactamase (ampC, Escherichia coli K-12, UniProt P00811)
Chain of UniProt P00811 (whole entry, looked up): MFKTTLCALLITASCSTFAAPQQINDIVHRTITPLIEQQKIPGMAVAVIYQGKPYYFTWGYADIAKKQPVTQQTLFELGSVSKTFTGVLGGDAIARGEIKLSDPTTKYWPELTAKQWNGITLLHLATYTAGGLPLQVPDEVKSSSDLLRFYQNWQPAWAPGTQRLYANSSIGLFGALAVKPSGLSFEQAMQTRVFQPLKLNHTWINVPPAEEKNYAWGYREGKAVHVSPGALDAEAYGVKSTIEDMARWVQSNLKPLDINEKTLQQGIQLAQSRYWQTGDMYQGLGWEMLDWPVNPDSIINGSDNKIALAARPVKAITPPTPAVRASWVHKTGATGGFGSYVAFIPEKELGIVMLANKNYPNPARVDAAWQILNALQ
Chain of UniProt O00459 (whole entry, looked up): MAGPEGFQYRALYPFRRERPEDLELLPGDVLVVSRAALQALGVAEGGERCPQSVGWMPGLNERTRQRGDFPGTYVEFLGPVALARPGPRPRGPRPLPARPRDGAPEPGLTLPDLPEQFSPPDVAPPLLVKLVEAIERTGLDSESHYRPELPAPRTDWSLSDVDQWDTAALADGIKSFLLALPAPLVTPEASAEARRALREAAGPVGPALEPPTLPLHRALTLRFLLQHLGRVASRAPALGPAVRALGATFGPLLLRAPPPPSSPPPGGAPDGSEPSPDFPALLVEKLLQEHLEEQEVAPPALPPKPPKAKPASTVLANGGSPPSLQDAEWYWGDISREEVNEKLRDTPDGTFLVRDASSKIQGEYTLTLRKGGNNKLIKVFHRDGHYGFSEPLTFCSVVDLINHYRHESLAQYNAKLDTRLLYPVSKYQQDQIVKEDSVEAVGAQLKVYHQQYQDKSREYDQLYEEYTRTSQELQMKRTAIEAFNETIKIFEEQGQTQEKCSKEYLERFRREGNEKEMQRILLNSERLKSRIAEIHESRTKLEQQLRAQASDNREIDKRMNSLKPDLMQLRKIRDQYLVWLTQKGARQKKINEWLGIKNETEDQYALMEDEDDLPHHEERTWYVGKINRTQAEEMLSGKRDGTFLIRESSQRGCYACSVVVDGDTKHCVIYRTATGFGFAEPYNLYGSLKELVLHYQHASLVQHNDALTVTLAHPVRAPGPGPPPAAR
Chain of UniProt P08510 (whole entry, unmodified, looked up): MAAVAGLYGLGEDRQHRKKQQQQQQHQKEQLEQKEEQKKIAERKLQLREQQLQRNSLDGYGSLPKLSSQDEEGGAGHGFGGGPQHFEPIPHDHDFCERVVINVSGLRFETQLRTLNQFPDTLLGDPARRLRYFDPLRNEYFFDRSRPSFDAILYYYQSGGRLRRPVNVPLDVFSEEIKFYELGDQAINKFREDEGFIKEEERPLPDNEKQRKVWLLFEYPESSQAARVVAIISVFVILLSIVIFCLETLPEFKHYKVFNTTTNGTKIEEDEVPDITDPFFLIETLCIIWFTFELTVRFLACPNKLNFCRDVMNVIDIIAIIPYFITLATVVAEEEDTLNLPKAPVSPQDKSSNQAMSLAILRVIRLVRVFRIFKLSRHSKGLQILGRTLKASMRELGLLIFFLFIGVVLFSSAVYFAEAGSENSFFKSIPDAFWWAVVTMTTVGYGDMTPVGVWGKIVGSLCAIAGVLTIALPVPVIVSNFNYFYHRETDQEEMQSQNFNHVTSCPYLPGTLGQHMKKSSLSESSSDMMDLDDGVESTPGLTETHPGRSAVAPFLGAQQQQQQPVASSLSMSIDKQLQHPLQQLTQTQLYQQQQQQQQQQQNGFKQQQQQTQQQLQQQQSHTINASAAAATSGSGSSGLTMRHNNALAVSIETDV
Chain of UniProt P50552 (whole entry, looked up): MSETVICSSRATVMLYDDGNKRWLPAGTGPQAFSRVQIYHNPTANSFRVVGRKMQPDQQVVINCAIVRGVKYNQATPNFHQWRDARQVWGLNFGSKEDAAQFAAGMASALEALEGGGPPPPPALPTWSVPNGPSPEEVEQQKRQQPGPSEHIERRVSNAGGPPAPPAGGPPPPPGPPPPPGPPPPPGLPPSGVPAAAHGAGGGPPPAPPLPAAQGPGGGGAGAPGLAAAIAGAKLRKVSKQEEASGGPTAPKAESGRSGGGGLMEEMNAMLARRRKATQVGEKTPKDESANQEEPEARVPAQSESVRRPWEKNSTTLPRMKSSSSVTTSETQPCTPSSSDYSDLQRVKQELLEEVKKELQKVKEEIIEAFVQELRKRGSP
Chain of UniProt O96013 (whole entry, looked up): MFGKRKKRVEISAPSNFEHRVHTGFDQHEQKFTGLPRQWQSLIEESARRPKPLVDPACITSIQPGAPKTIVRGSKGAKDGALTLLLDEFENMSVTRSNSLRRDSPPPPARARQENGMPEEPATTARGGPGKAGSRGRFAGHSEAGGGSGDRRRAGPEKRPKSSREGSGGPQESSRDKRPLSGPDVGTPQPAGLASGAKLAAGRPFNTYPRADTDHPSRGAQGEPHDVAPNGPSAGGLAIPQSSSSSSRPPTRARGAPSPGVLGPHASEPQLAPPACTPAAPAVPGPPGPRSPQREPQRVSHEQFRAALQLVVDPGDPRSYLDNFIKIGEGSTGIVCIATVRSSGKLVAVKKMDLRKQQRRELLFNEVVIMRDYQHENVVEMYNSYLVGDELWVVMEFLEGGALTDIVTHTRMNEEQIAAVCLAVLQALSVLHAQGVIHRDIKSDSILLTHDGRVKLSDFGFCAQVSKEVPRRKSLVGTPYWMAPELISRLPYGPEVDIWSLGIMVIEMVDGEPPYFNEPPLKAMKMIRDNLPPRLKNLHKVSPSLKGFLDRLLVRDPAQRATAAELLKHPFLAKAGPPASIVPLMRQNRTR
Chain of UniProt Q05655 (whole entry, looked up): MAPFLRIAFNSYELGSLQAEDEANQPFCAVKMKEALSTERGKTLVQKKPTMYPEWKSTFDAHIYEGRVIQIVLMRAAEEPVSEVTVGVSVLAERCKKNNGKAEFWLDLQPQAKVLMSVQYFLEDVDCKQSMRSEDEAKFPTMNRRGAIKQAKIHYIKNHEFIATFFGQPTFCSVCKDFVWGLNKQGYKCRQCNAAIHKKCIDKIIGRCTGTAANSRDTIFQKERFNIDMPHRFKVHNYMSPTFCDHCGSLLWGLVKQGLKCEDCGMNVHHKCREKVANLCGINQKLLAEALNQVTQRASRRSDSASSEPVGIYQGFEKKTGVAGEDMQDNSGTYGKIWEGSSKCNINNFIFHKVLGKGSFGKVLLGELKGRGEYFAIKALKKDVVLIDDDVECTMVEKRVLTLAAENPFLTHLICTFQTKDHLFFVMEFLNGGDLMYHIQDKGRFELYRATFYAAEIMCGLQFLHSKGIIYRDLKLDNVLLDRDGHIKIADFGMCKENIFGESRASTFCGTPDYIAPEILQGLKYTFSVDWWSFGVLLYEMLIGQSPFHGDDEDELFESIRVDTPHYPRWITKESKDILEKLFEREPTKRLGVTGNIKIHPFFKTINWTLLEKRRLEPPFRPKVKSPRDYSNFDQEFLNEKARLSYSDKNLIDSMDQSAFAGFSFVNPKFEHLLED

Structure (SMILES) | tested on | assay | test system | setting | quantity | result
CC(C)C[C@H](NC(=O)[C@H](CCC(=O)O)NC(=O)[C@@H](N)Cc1ccccc1)C(=O)N[C@@H](CCC(=O)O)C(=O)N[C@@H](CCCNC(=N)N)C(=O)N[C@@H](CCCNC(=N)N)C(=O)N[C@@H](Cc1ccccc1)C(=O)N[C@@H](CCCCN)C(=O)N[C@@H](CCC(N)=O)C(=O)N[C@@H](CCC(N)=O)C(=O)O | PDE1C promoter DNA | binding, isothermal titration calorimetry | – | – | Kd | 0.189 ± 0.0605 µM
O=C1NC2(CC2)COc2ncc(F)cc2[C@H]2COCCN2c2ccn3ncc1c3n2 | – | – | Sprague-Dawley rat, female, ovaries | oral, 10 mg/kg/day, 4 weeks, end of treatment | organ-to-body weight ratio | 0.036 ± 0.005%
CSCC[C@@H](N)C(=O)N[C@H](C)C(=O)N[C@H](C)C(=O)N[C@@H](C(=O)N[C@H](C)C(=O)NCC(=O)N[C@H](CC(C)C)C(=O)N[C@H](Cc1ccc(O)cc1)C(=O)NCC(=O)N[C@H](CC(C)C)C(=O)NCC(=O)N[C@H](CCC(=O)O)C(=O)N[C@H](CC(=O)O)C(=O)N[C@H](CCCNC(=N)N)C(=O)N[C@H](CCC(N)=O)C(=O)N[C@H](Cc1c[nH]cn1)C(=O)N[C@H](CCCNC(=N)N)C(=O)N[C@H](CCCCN)C(=O)N[C@H](CCCCN)C(=O)N[C@H](CCC(N)=O)C(N)=O)C(C)C | Sh, DEL6-46 (Drosophila melanogaster, UniProt P08510) | ion current, blocker, inside-out patch clamp | Xenopus oocytes | range over 50 µM, pH 7.0, 22–24 °C, at 0 mV | Kd | 8.9 µM
CC[C@H](C)[C@H](NC(=O)[C@H](CCCCN)NC(=O)[C@H](C)NC(=O)[C@H](CCCNC(=N)N)NC(=O)[C@H](CCCCN)NC(=O)[C@H](CCC(N)=O)NC(=O)[C@H](CCC(N)=O)NC(=O)[C@H](CC(N)=O)NC(=O)[C@@H](NC(=O)[C@H](CS)NC(=O)[C@H](CC(N)=O)NC(=O)[C@@H]1CCCN1C(=O)[C@H](CC(=O)O)NC(=O)[C@H](CC(C)C)NC(=O)[C@H](C)NC(=O)[C@H](C)NC(=O)[C@H](CCC(=O)O)NC(=O)[C@H](Cc1c[nH]c2ccccc12)NC(=O)[C@H](Cc1ccc(O)cc1)NC(=O)[C@H](CCCNC(=N)N)NC(=O)[C@H](CC(N)=O)NC(=O)[C@H](CCCNC(=N)N)NC(=O)[C@H](CCSC)NC(=O)[C@H](CCC(=O)O)NC(=O)[C@H](CCCCN)NC(=O)[C@H](CO)NC(=O)[C@H](Cc1ccccc1)NC(C)=O)[C@@H](C)O)C(=O)N[C@@H](CCCNC(=N)N)C(=O)N[C@@H](CO)C(=O)N[C@H](C(=O)N[C@@H](Cc1ccc(O)cc1)C(=O)N[C@@H](CCC(=O)O)C(=O)N[C@@H](CCC(=O)O)C(=O)NCC(=O)N[C@@H](CCC(=O)O)C(N)=O)[C@@H](C)CC | ERBB2 | binding, SPR | – | – | Kd | 0.067 µM
CC(C)[C@H](NC(=O)[C@H](CCCNC(=N)N)NC(=O)[C@H](Cc1c[nH]c2ccccc12)NC(=O)CN)C(=O)N[C@@H](CO)C(=O)N[C@@H](CCC(=O)O)C(=O)N[C@@H](Cc1ccccc1)C(=O)NCC(=O)NCC(=O)NCC(=O)N[C@@H](CO)C(=O)N[C@@H](CCCCNC(=S)Nc1ccc2c(c1)C(=O)OC21c2ccc(O)cc2Oc2cc(O)ccc21)C(=O)O | cowpea mosaic virus | competitive phage ELISA | – | – | Kd | ~0.7 µM
CSCCC(N)c1nc2ccccc2[nH]1 (centres unmarked) | ampC | – | – | – | Kd | 1100 µM
CC[C@H](C)[C@H](NC(=O)[C@H](CCC(=O)O)NC(=O)[C@H](CCC(=O)O)NC(=O)[C@H](Cc1ccccc1)NC(=O)[C@H](CCCCN)NC(=O)[C@@H]1CCCN1C(=O)[C@H](Cc1c[nH]cn1)NC(=O)[C@H](CCCCN)NC(=O)[C@H](CO)NC(=O)[C@H](CC(C)C)NC(=O)[C@H](Cc1c[nH]cn1)NC(C)=O)C(=O)N[C@@H](CC(C)C)C(=O)N[C@H](C(=O)N[C@@H](CCCNC(=N)N)C(=O)N[C@@H](CC(C)C)C(=O)N[C@@H](CCCNC(=N)N)C(=O)N[C@@H](CC(C)C)C(=O)N[C@@H](CCC(N)=O)C(N)=O)[C@@H](C)O | Calmodulin-1, N-lobe fragment (CALM1, Homo sapiens, UniProt P0DP23) | ITC | – | N-lobe, added: 1 mM CaCl2 | Kd | 1.31 µM
CC[C@H](C)[C@H](NC(=O)[C@H](CCCCN)NC(=O)[C@H](C)NC(=O)[C@H](CCCNC(=N)N)NC(=O)[C@H](CCCCN)NC(=O)[C@H](CCC(N)=O)NC(=O)[C@H](CCC(N)=O)NC(=O)[C@H](CC(N)=O)NC(=O)[C@@H](NC(=O)[C@H](CC(C)C)NC(=O)[C@H](CC(N)=O)NC(=O)[C@@H]1CCCN1C(=O)[C@H](CC(=O)O)NC(=O)[C@H](CC(C)C)NC(=O)[C@H](C)NC(=O)[C@H](C)NC(=O)[C@H](CCC(=O)O)NC(=O)[C@H](Cc1c[nH]c2ccccc12)NC(=O)[C@H](Cc1ccc(O)cc1)NC(=O)[C@H](CCCNC(=N)N)NC(=O)[C@H](CC(N)=O)NC(=O)[C@H](CCCNC(=N)N)NC(=O)[C@H](CCSC)NC(=O)[C@H](CCC(=O)O)NC(=O)[C@H](CCCCN)NC(=O)[C@H](CO)NC(=O)[C@H](Cc1ccccc1)NC(C)=O)[C@@H](C)O)C(=O)N[C@@H](CCCNC(=N)N)C(=O)N[C@@H](CO)C(=O)N[C@H](C(=O)N[C@@H](Cc1ccc(O)cc1)C(=O)N[C@@H](CCC(=O)O)C(=O)N[C@@H](CCC(=O)O)C(=O)NCC(=O)N[C@@H](CCC(=O)O)C(N)=O)[C@@H](C)CC | ERBB2 | binding, SPR | – | – | Kd | 0.0058 µM
C=CC1CN(Cc2ccccn2)C(=O)C2CCCC1N2S(=O)(=Nc1ccccc1)c1cc(Cl)cc(Cl)c1 (centres unmarked) | uncharacterized protein, residues 23-253 (Pseudomonas aeruginosa, UniProt Q9HYX8) | binding, competitive fluorescence polarization | – | 30 min, protein 40 nM, added: fluorescent tracer 1 nM | Kd | > 40 µM
CSCC[C@@H]1NC(=O)[C@H]([C@@H](C)O)NC(=O)[C@H](CC(C)C)NC(=O)[C@H](Cc2c[nH]c3ccccc23)NC(=O)CNC(=O)[C@H](C)NC(=O)[C@H](CO)NC(=O)[C@@H](NC(=O)[C@H](CCCCN)NC(=O)[C@H](CC(=O)O)NC(=O)[C@H](CO)NC(C)=O)CSCCC(=O)N2CN3CN(C2)C(=O)CCSC[C@@H](C(=O)N2CCC[C@H]2C(=O)N[C@@H](CO)C(=O)N[C@@H](Cc2c[nH]cn2)C(N)=O)NC(=O)[C@H](CC(C)C)NC(=O)[C@H](CC(N)=O)NC(=O)[C@H](CC(C)C)NC(=O)[C@H](CCC(N)=O)NC(=O)[C@H](CCCCN)NC(=O)[C@H](CSCCC3=O)NC1=O | Programmed cell death 1 ligand 1 (CD274, Homo sapiens, UniProt Q9NZQ7) | binding, SPR | – | – | Kd | 0.00429 µM
CC(C)C[C@H](NC(=O)[C@H](CCC(N)=O)NC(=O)[C@H](CCCNC(=N)N)NC(=O)[C@@H](N)CS)C(=O)N[C@@H](CCCNC(=N)N)C(=O)N[C@@H](CCCCN)C(=O)NCC(=O)N[C@@H](CCCCN)C(=O)N[C@@H](Cc1ccccc1)C(=O)N[C@@H](Cc1ccccc1)C(=O)N[C@@H](CO)C(=O)N[C@@H](CCC(=O)O)C(=O)NCC(=O)NCC(=O)N[C@@H](CO)C(=O)NCC(=O)NCC(=O)N[C@H](C(=O)N[C@@H](CO)C(=O)N[C@@H](Cc1ccccc1)C(=O)N[C@@H](CCC(=O)O)C(=O)N[C@@H](CCC(N)=O)C(=O)N[C@@H](Cc1ccccc1)C(=O)N[C@@H](Cc1c[nH]c2ccccc12)C(=O)N[C@@H](C)C(=O)N[C@@H](Cc1c[nH]c2ccccc12)C(=O)N[C@@H](CC(C)C)C(=O)N[C@@H](Cc1c[nH]c2ccccc12)C(=O)N1CCC[C@H]1C(=O)O)[C@@H](C)O | Serine/threonine-protein kinase PAK 4 (PAK4, Homo sapiens, UniProt O96013) | fluorescence polarization | – | added: rhodamine-labeled peptide | Kd | 0.457 µM
CC(=O)N[C@@H](CO)C(=O)N[C@@H](Cc1ccccc1)C(=O)N[C@@H](CCC(=O)O)C(=O)N[C@@H](Cc1ccccc1Cl)C(=O)N1CCC[C@H]1C(=O)N1CCC[C@H]1C(=O)N1CC[C@@H]2C=C[C@H]3CC[C@@H](C(=O)N[C@H](C(=O)N[C@@H](CCC(=O)O)C(=O)N[C@@H](CC(=O)O)C(=O)N[C@@H](CCC(=O)O)C(=O)N[C@@H](CC(C)C)C(N)=O)[C@@H](C)O)N3C(=O)[C@H]21 | Vasodilator-stimulated phosphoprotein (VASP, Homo sapiens, UniProt P50552) | binding, fluorescence | – | – | Kd | 0.31 µM
CC[C@H](C)[C@H](NC(=O)c1ccc2c(c1)C(=O)OC21c2ccc(N(C)C)cc2Oc2cc(N(C)C)ccc21)C(=O)N[C@H](C(=O)N[C@@H](C)C(=O)N[C@@H](CC(C)C)C(=O)N[C@H](C(=O)N[C@@H](CO)C(=O)N[C@@H](CC(N)=O)C(=O)N[C@@H](CCC(N)=O)C(=O)N[C@@H](CCC(=O)O)C(=O)N[C@@H](Cc1ccc(OP(=O)(O)O)cc1)C(=O)N[C@@H](CC(C)C)C(=O)N[C@@H](CC(=O)O)C(=O)N[C@@H](CC(C)C)C(=O)N[C@@H](CO)C(=O)N[C@@H](CCSC)C(=O)N1CCC[C@H]1C(=O)N[C@@H](CC(C)C)C(=O)N[C@@H](CC(=O)O)C(=O)O)[C@@H](C)O)C(C)C | Phosphatidylinositol 3-kinase regulatory subunit beta, SH2 domain (Homo sapiens, UniProt O00459) | binding | – | – | Kd | 1.1 µM
CC(C)C(Nc1ncnc2c1oc1ccccc12)C(=O)O (centres unmarked) | ampC | – | – | – | Kd | 1500 µM
CC[C@H](C)[C@H](NC(=O)[C@@H](NC(=O)CC(NC(=O)[C@H](Cc1ccccc1)NC(=O)[C@H](C)NC(=O)[C@H](CCCNC(=N)N)NC(=O)CNC(=O)[C@@H]1CCCN1C(=O)CNC(=O)[C@@H](N)CCCNC(=N)N)c1ccccc1[N+](=O)[O-])[C@@H](C)O)C(=O)O (some centres unmarked) | H-2 class I histocompatibility antigen, D-D alpha chain, 18 (H2-D1, Mus musculus, UniProt P01900) | thermodynamic cycle calculation | – | – | Kd | 0.38 µM
CC[C@H](C)[C@H](NC(=O)[C@H](CNC(=O)COCCNC(=O)CN(CCNC(=O)CN(CCNC(=O)CN(CCNC(=O)CN(CCNC(=O)[C@H](CCCNC(=N)N)NC(C)=O)C(=O)Cn1ccc(N)nc1=O)C(=O)Cn1cnc2c(=O)[nH]c(N)nc21)C(=O)Cn1cnc2c(=O)[nH]c(N)nc21)C(=O)Cn1ccc(N)nc1=O)NC(=O)[C@H](C)NC(=O)[C@H](CCCNC(=N)N)NC(=O)[C@H](CCCCN)NC(=O)[C@H](CCC(N)=O)NC(=O)[C@H](CCC(N)=O)NC(=O)[C@H](CC(N)=O)NC(=O)[C@@H](NC(=O)[C@H](CC(C)C)NC(=O)[C@H](CC(N)=O)NC(=O)[C@@H]1CCCN1C(=O)[C@H](CC(=O)O)NC(=O)[C@H](CC(C)C)NC(=O)[C@H](C)NC(=O)[C@H](C)NC(=O)[C@H](CCC(=O)NCC(=O)NCCN(CC(=O)NCCN(CC(=O)NCCN(CC(=O)NCCN(CC(=O)N[C@@H](CCCNC(=N)N)C(N)=O)C(=O)Cn1cnc2c(=O)[nH]c(N)nc21)C(=O)Cn1ccc(N)nc1=O)C(=O)Cn1ccc(N)nc1=O)C(=O)Cn1cnc2c(=O)[nH]c(N)nc21)NC(=O)[C@H](Cc1c[nH]c2ccccc12)NC(=O)[C@H](Cc1ccc(O)cc1)NC(=O)[C@H](CCCNC(=N)N)NC(=O)[C@H](CC(N)=O)NC(=O)[C@H](CCCNC(=N)N)NC(=O)[C@H](CCSC)NC(=O)[C@H](CCC(=O)O)NC(=O)[C@H](CCCCN)NC(=O)[C@H](CO)NC(=O)[C@H](Cc1ccccc1)NC(C)=O)[C@@H](C)O)C(=O)N[C@@H](CCCNC(=N)N)C(=O)N[C@@H](CO)C(=O)N[C@H](C(=O)N[C@@H](Cc1ccc(O)cc1)C(=O)N[C@@H](CCC(=O)O)C(=O)N[C@@H](CCC(=O)O)C(=O)NCC(=O)N[C@@H](CCC(=O)O)C(N)=O)[C@@H](C)CC | ERBB2 | binding, SPR | – | – | Kd | 0.0089 µM
O=C(N[C@@H]1c2ccccc2C[C@H]1N1CCCC1)c1ccc(-c2ccnc3[nH]ccc23)nc1 | Protein kinase C delta type (PRKCD, Homo sapiens, UniProt Q05655) | binding, competition with immobilised ligand | – | – | Kd | 0.25 µM

Excerpt of the above:
Structure (SMILES) | tested on | assay | test system | setting | quantity | result
C=CC1CN(Cc2ccccn2)C(=O)C2CCCC1N2S(=O)(=Nc1ccccc1)c1cc(Cl)cc(Cl)c1 (centres unmarked) | uncharacterized protein, residues 23-253 (Pseudomonas aeruginosa, UniProt Q9HYX8) | binding, competitive fluorescence polarization | – | 30 min, protein 40 nM, added: fluorescent tracer 1 nM | Kd | > 40 µM
